Measurements pooled from the literature.
A part holds a random share of what one study measured.

Sample 1
Target: RNA binding protein fox-1 homolog 2, RRM domain, GST-SBP tag (RBFOX2, Homo sapiens, UniProt O43251-10, residues 100-194)
Method: RNA Bind-n-Seq
Molecule type: RNA
Matrix: in vitro
Concentration: 365 nM
Notes: natural RNA segment, single round, ends assumed
Baseline: no-protein control
Direction: higher = stronger binding
Measurement: RBNS enrichment (R)
All sequences stand within: GGGAGUUCUACAGUCCGACGAUC … UGGAAUUCUCGGGUGCCAA
Target sequence (chain): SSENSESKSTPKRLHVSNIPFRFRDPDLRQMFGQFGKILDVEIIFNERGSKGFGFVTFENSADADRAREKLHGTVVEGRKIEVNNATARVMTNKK
GUGUUUUUGUUAACUACCCUACAGAUAUUGAAUGCACCUUGAGAUAAUUUAGUGUUUUUAACUGAUACAUAAUUUAUCAAGCAGUACAUGAAAGUGUAAUAAUAAAAUGU: 0.538
ACCAGUCGACACCAUUGUGUUUGACCGCGUUCCUGUCUCCUCAGCCACAUACCCUCAUCUGUGCUGUCAGUGUGUCUCUGGUGGGGCAGACUUUGCACUUACUGCAGUGC: 0.404
AAUAGAGCCUGUGCAUGGACCCAGCACUGUCAAUAGGCACAGGACUCUCCCUCCUCCGGCUGUGACUGGCAGAUUGUCACCACAGUAGAGAACCUUUCCCCUGUACUUUU: 0.997
CCUGACAGCCCACGGCGGGUACACUGAGCAGCUGCAUUGGUGCUGUCACUUUUUUAAGGCUUUCUGUCCAGACUUCAACACUGGUUUCUUUUCAGAGUUUCGAAGGAUUA: 0.32
UAGUUCUGUUAUUUAUACUUGGUGUUGCUUGUCAUGGACACCGGUGAACAUGCCGUAACUCUGUGACUGCAUUGUAAGUGCAGUGGGGGUAAGCAGUCCUGUGAGUGGCG: 2.77
CUUCUGCCCUGCUUUUGCUAGGUCACAGAGGAUCUGCUUGGUCUUGAUAAGCUAUGUUGUUGCACUUUAAACAUUUAAAUUAUACAAUCAUCAACCCCCAACCCUCUGGG: 0.428
AGGGGACUGUCAAUCACAGGGUUUCAUAUGUUGUCAUUGUCACUCUUUCACAUUUUUGUACAUCAGUGAAUUUUUUAUAUUAAAAGGUUGAGCCAAAGCCCCCAGUGUUU: 0.525
GAAAUAUCUGCUGAUUGUGCCCUACUCUUUGCACCUGACUUUUCCUAGUUGUCCUGGUGCUAACACAGGAGCUACACCUUGAUCCUCUCCUGGCAUGAAAAUAAAACAAA: 0.846
UAGUCUUUGAAGCAAGUAUCCUGAUAGUUUAAGGCUUUGCAAUUUUAACUCCUUGAGGCCAGGCCAGAAGUGUUAGGAGCUAAGUAUGAAUGAACUGUGUAAUAAGAGAG: 0.729
UUCGUUAACAGAGGAAUCUGCUCUGCAUGGCAUUUCUCCAAGUGAAGACAGGCUUCUUUUUUUUUUUUUUAAAUGGUGCCCGCCCCACCCAUCGACACAUGCAGAAAUGG: 0.596
CACAGGGCAUGGAACCCUGAACCAGAAUGUCCCUGCAGUGCCGGAGAGGUCGCCGUGGGAAAACAGCACAACAGCACCUCUUGUGUGUGUACUUUCUACCCCCGCCCCCA: 1.41

Sample 2
Target: Interferon regulatory factor 7, full length, phosphomimetic (IRF7, Homo sapiens, UniProt Q92985, residues 1-503, S471D/S472D/S475D/S476D/S477D/S483D/S484D/S487D)
UniProt Q92985, sequence (whole entry, unmodified, looked up): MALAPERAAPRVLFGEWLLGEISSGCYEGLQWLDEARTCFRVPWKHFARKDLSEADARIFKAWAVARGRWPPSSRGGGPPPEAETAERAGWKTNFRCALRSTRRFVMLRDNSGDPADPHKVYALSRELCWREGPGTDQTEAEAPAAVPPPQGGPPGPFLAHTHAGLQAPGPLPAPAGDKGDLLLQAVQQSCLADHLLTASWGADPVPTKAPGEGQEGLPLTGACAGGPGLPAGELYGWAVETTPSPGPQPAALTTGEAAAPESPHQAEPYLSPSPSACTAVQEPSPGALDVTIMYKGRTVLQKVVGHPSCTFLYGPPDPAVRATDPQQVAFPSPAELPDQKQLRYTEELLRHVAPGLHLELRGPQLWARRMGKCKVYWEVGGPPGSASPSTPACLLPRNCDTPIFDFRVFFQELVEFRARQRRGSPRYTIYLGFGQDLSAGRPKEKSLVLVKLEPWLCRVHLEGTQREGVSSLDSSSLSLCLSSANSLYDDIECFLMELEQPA
Method: protein-binding microarray
Molecule type: double-stranded DNA, one strand shown
Matrix: in vitro
Concentration: 2200 nM top
Notes: 60-bp whole probe
With: salmon DNA 0.4 mg/ml
Baseline: random background probes
Direction: higher = stronger binding
Measurement: fitted relative affinity
All sequences stand within: GCCTAGCAC … GTCTTGATTCGCTTGACGCTGCTG
TCATTTTTACTTTCTGAACTGTGCTAG: 3.83 z-score
TTAGGTCTGGGGTATCGGTTAGTGCTA: -0.173 z-score
TTAGGTCTCGGTTCCGGTTAGTGCTAG: 1.76 z-score
TCAATTGTGCAATCTTAAACTGTGCTA: 0.149 z-score
GACGGTCTACTTATCCTGACGTGCTAG: 0.625 z-score
TTAGGTATCCTTACCCTTTAGTGCTAG: 0.812 z-score

Sample 3
Target: Sal-like protein 4, full length isoform A (SALL4, Homo sapiens, UniProt Q9UJQ4, residues 1-1053)
UniProt Q9UJQ4, sequence (whole entry, looked up): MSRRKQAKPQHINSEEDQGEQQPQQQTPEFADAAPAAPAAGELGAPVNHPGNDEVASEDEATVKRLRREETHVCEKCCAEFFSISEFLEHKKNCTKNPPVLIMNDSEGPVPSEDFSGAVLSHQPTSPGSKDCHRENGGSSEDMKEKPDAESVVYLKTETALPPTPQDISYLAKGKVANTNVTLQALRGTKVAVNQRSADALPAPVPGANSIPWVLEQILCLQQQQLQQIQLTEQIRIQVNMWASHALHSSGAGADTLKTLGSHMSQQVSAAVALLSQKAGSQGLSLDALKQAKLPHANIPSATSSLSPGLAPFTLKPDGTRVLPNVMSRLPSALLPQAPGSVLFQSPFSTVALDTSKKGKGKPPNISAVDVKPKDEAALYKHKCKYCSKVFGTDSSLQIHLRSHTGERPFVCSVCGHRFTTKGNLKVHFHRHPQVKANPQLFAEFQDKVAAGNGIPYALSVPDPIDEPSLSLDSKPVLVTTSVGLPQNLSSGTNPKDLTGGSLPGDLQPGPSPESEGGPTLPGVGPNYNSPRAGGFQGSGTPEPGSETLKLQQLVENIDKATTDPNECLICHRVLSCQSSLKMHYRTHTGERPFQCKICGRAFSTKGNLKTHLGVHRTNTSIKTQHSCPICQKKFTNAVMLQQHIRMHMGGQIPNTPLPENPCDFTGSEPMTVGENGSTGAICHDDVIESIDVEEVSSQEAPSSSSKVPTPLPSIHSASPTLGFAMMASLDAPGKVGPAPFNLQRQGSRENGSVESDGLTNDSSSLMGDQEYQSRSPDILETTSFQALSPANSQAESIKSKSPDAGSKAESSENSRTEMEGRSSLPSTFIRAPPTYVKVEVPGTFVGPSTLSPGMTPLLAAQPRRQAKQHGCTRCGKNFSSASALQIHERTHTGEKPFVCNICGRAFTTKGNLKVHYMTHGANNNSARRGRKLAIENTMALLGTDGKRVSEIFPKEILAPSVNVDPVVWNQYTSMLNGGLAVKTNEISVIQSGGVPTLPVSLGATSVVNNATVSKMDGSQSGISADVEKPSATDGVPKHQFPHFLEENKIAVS
Method: universal PBM
Molecule type: double-stranded DNA, one strand shown
Matrix: in vitro
Concentration: 600 nM
Notes: 8-mer, flanks averaged, mean of replicates
Direction: higher = stronger binding
Measurement: E-score
CATTTCGG: 0.0431
GACCTGCC: -0.327
AGCCGCAA: -0.203
AATGTTTG: 0.131
CCATTTAC: 0.078
ACGCTAAT: 0.066
ACAGGGGT: -0.246

Other studies, line by line
PhoQ, residues 284 288 289 292 302 303 SSYNSA  fold induction (PhoP, residues 12 14 15 18 19 IQFRS (Escherichia coli, UniProt P23836); Sort-seq, measured: YFP reporter; E. coli; PhoQ-PhoP variant library, with: 10 µM Mg2+; baseline: high Mg2+ state, higher = stronger signaling): 4.32

Repeated from above (sample 3):
AATGTTTG: 0.131
ACAGGGGT: -0.246
